Measured values pooled from the literature.
Compare with care: the assays were run in different laboratories.
T1: itself; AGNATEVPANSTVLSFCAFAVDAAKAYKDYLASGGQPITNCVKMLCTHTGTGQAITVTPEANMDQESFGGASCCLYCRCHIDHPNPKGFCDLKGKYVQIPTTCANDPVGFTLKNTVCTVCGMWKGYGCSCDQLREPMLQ
B1: nsp16 (SARS-CoV-2, UniProt P0DTD1); chain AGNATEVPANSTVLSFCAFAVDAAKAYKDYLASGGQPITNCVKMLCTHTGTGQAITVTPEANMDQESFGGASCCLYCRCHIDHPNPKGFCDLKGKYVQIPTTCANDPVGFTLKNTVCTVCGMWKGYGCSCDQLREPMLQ
B2: nusG (Mycobacterium tuberculosis, UniProt P9WIU9); chain TTFDGDTSAGEAVDLTEANAFQDAAAPAEEVDPAAALKAELRSKPGDWYVVHSYAGYENKVKANLETRVQNLDVGDYIFQVEVPTEEVTEIKNGQRKQVNRKVLPGYILVRMDLTDDSWAAVRNTPGVTGFVGATSRPSALALDDVVKFLLPRGSTRKAAKGAASTAAAAEAGGLERPVVEVDYEVGESVTVMDGPFATLPATISEVNAEQQKLKVLVSIFGRETPVELTFGQVSKI
B3: cyanovirin-N (UniProt P81180); chain LGKFSQTCYNSAIQGSVLTSTCERTNGGYNTSSIDLNSVIENVDGSLKWQPSNFIETCRNTQLAGSSELAAECKTRAQQFVSTKINLDDHIANIDGTLKYE

| Substance | partner | assay | system | setting | measurement | result |
| --- | --- | --- | --- | --- | --- | --- |
| B1 (nsp16) | T1, itself | cross-linking |  |  | subunits per oligomer | 3 |
| B2 (nusG) | rpoB (Mycobacterium tuberculosis, UniProt P9WGY9) | cryo-EM |  |  | binding | binds |
| nsp16/nsp10 heterodimer (SARS-CoV-2) (sequence not shown) | itself | crystal structure |  |  | binding | binds |
| EVSIETDIIDEVN (N 377-389 (human coronavirus 229E, UniProt P15130)) | N protein C-terminal domain 245-389 (human coronavirus 229E, UniProt P15130) | fluorescence titration | peptide | 1 h, 25 °C | Kd | 7.43 µM |
| xthA (Mycobacterium tuberculosis, UniProt P96273) | ligA G639V (Mycobacterium tuberculosis, UniProt P9WNV1) | SPR |  |  | Kd | 0.277 µM |
| cyanovirin-N homolog fragment (sequence not shown) | Spike fragment (SARS-CoV-2) | binding to Spike, ELISA |  |  | EC50 | 12.6 nM |
| B3 (cyanovirin-N) | S S1 (SARS-CoV-2) | SPR |  |  | binding | binds |

A few entries again:
| Substance | partner | assay | system | setting | measurement | result |
| --- | --- | --- | --- | --- | --- | --- |
| xthA (Mycobacterium tuberculosis, UniProt P96273) | ligA G639V (Mycobacterium tuberculosis, UniProt P9WNV1) | SPR |  |  | Kd | 0.277 µM |
